Published values from different studies.
Protocols differ between the studies behind these lines. ± marks the error that the study gave.

For `COc1c2c(cc3oc(CO)cc(=O)c13)O[C@H](C(C)(C)O)C2`, “ear edema weight increase” read 3.7 ± 0.29 mg (mouse, xylene ear edema; oral, 2 mg/kg).
For `COc1ccc2c(c1)c(CC(=O)OCC(=O)OC(C)(C)C)c(C)n2C(=O)c1ccc(Cl)cc1`, the writhing count was 12.5 ± 1.67 (BALB/c mice, acetic acid writhing; intraperitoneal, 20 mg/kg, 20 min count).
`CCOP(=O)(CC(=O)Nc1ccc(S(=O)(=O)N(CC(N)=O)c2ccc(N(CC(N)=O)S(=O)(=O)c3ccc(OC)cc3)c3ccccc23)cc1)OCC`: “nuclear Nrf2 protein level” “increased” (Western blot; APP/PS1 mice, hippocampus and frontal cortex; 40 mg/kg).
For `COc1ccc(Nc2c(C#N)cnc3ccc(Cl)cc23)cc1`, the maximal protection was 91.8% (heme peroxidation; acetate buffer; 100 µM, 1 h, pH 5.2, added: H2O2).
`CC(C)(O)c1ccc(N2Cc3c(ccnc3-c3ccc(F)cc3OCC(F)(F)F)C2=O)cc1` has a glucosylsphingosine level of 61 ± 1% (Gaucher disease mouse model, brain; 30 mg/kg, 2 months once daily; relative to: vehicle).
`Cc1cc2c(cc1O)C=C1C=CC(=O)C(C)(C)[C@H]1CC2` — result for relative abundance: “decreased” (item: Shigella, Parabacteroides, Clostridium; C57BL/6J mouse DSS colitis, faeces; dose not given; relative to: DSS alone).
Under “serum alanine aminotransferase”, `O=c1c(OCc2ccccc2)c(-c2cccc([N+](=O)[O-])c2)oc2ccccc12` is recorded as 44.6 ± 2.98 IU (diabetic rat; 5 mg/kg, p-nitrophenyl β-glucoside induced).
Under IL-6 level, `N#Cc1ccc(-c2cc(=O)c3ccc4[nH]c(C(F)(F)F)nc4c3o2)cc1` is recorded as “decreased” (ELISA; 5xFAD mice, brain; dose not given, chronic treatment).
For `Cc1ccc(S(=O)(=O)N(CCc2nnc(S)n2N)c2ccccc2)cc1`, the analgesic protection was 105% (tail flick, radiant heat; rat; 200 mg/kg).
With `O=S(=O)(c1ccccc1)N(CCc1nnc(S)o1)c1ccccc1` the analgesic protection was 68.2% (radiant heat tail flick; rat; 100 mg/kg).
For `CC[C@H](C)[C@H](NC(=O)[C@H](Cc1c[nH]cn1)NC(=O)[C@@H]1CSSC[C@H](NC(=O)[C@H](Cc2c[nH]cn2)NC(=O)[C@H](Cc2ccccc2)NC(=O)CN2CCN(CC(=O)O)CCN(CC(=O)O)CCN(CC(=O)O)CC2)C(=O)N2C[C@H](O)C[C@H]2C(=O)N[C@@H](Cc2ccc(O)c(Cl)c2)C(=O)N[C@@H](CC(=O)O)C(=O)N[C@@H](CC(C)C)C(=O)N1)C(=O)N[C@@H](CC(C)C)C(=O)NCc1ccc(CNC(=O)CN2CCN(CC(=O)O)CCN(CC(=O)O)CCN(CC(=O)O)CC2)cc1` [indium-111 labelled], “thrombus to contralateral ratio” read 3 to 4 (ex vivo gamma counting; rat, carotid crush thrombosis model, carotid artery; relative to: thrombosed over contralateral vessel).
`CCc1nc(-c2ccc(-c3ccc(CCC(N)(CO)CO)cc3)cc2)co1` — result for “maximal inhibition of PBLs”: 50% (Sprague-Dawley rat, peripheral blood lymphocytes; oral, 1 mg/kg, single dose).
With `Cc1ncc([N+](=O)[O-])n1CCOCc1nnc(SCC(=O)c2ccc(F)cc2)o1` the DPPH scavenging was 66.3 ± 0.35% (75 µg/mL, 45 min).
`Cc1cc2c(cc1C1(c3ncc(C(=O)O)cn3)CC1)C(C)(C)CCC2(C)C` — result for “log2 fold change”: -0.13 (RNA sequencing, item: Arl11 mRNA; rat, brain; dose not given, 24 h, single dose; relative to: vehicle).
Under “serum GH level”, `CCCC[C@H](NC(=O)[C@@H](NC(=O)[C@H](CC(=O)O)NC(=O)[C@H](CCC(N)=O)NC(=O)[C@H](CC(C)C)NC(=O)[C@H](CC(C)C)NC(=O)[C@H](CCCN)NC(=O)[C@H](CCCNC(=N)N)NC(=O)[C@H](C)NC(=O)[C@H](CO)NC(=O)[C@H](CC(C)C)NC(=O)[C@H](CCC(N)=O)NC(=O)[C@H](CC)NC(=O)[C@H](CC(C)C)NC(=O)[C@@H](NC(=O)[C@H](CCCN)NC(=O)[C@H](CCCNC(=N)N)NC(=O)[C@H](Cc1ccc(O)cc1)NC(=O)[C@H](CO)NC(=O)[C@H](CCC(N)=O)NC(=O)[C@@H](NC(=O)[C@H](Cc1ccccc1)NC(=O)[C@@H](NC(=O)[C@H](C)NC(=O)[C@H](CC(=O)O)NC(=O)[C@@H](C)NC(=O)CCc1ccc(O)cc1)[C@@H](C)CC)[C@@H](C)O)C(C)C)[C@@H](C)CC)C(=O)N[C@@H](CC(=O)O)C(=O)N[C@@H](CCCNC(=N)N)C(=O)NC` is recorded as 37.6 ± 15.5 ng/mL (GH release, ELISA; male Sprague-Dawley rat, anaesthetised, serum; subcutaneous, 3 µg/kg, 0 min).
For `COc1ccc(-c2oc3ccccc3c(=O)c2OCc2ccccc2)cc1`, “serum alkaline phosphatase” read 193 ± 4.69 IU (diabetic rat; 7.5 mg/kg, p-nitrophenyl β-glucoside induced).
For `CCCC[C@H](NC(=O)[C@@H](NC(=O)[C@H](CC(=O)O)NC(=O)[C@H](CCC(N)=O)NC(=O)[C@H](CC(C)C)NC(=O)[C@H](CC(C)C)NC(=O)[C@H](CCCN)NC(=O)[C@H](CCCNC(=N)N)NC(=O)[C@H](C)NC(=O)[C@H](CO)NC(=O)[C@H](CC(C)C)NC(=O)[C@H](CCC(N)=O)NC(=O)[C@H](CC)NC(=O)[C@H](CC(C)C)NC(=O)[C@@H](NC(=O)[C@H](CCCN)NC(=O)[C@H](CCCNC(=N)N)NC(=O)[C@H](Cc1ccc(O)cc1)NC(=O)[C@H](CO)NC(=O)[C@H](CCC(N)=O)NC(=O)[C@@H](NC(=O)[C@H](Cc1ccccc1)NC(=O)[C@@H](NC(=O)[C@H](C)NC(=O)[C@H](CC(=O)O)NC(=O)[C@@H](C)NC(=O)[C@H](Cc1ccc(O)cc1)NC)[C@@H](C)CC)[C@@H](C)O)C(C)C)[C@@H](C)CC)C(=O)N[C@@H](CC(=O)O)C(=O)NCCCCNC(=N)N`, “serum GH level” read 143 ± 18.4 ng/mL (GH release, ELISA; male Sprague-Dawley rat, anaesthetised, serum; subcutaneous, 3 µg/kg, 30 min).
`CCNS(=O)(=O)c1ccc(COc2ccc3nc4ccc(=O)cc-4oc3c2)cc1` has a reduction of 60% (item: SNAIL1.CBG bioluminescence; mouse, 4T1 breast implant tumour, tumour; intravenous, 10 mg/kg single, 4 h; relative to: vehicle).
The analgesia of `CCCCCCCOC(=O)Cc1c(C)n(C(=O)c2ccc(Cl)cc2)c2ccc(OC)cc12` is reported as 83.1% (acetic acid writhing test; BALB/c mouse; intraperitoneal, 30 mg/kg; relative to: negative control).
`O=c1c(OCc2ccccc2)c(-c2ccc([N+](=O)[O-])cc2)oc2ccccc12`: “serum alkaline phosphatase” 212 ± 4.8 IU (diabetic rat; 7.5 mg/kg, p-nitrophenyl β-glucoside induced).
`CC[C@H]1[C@@H](O)[C@@H]2[C@H](CC[C@]3(C)[C@@H]([C@H](C)CCOS(=O)(=O)[O-])CC[C@@H]23)[C@@]2(C)CC[C@@H](O)C[C@@H]12.[Na+]` has a fibrosis area of 8.9 ± 0.6% (digital image analysis; ob/ob NASH mouse model, liver; oral, 10 mg/kg once daily, 8 weeks; relative to: area).
For `Cc1cc(O)c(C=O)c2c1C(=O)Oc1c(CO)c(O)c3c(c1O2)C(O)OC3=O` (stereo not drawn), the serum insulin was 3.43 ± 0.2 mIU/L (rat, male, streptozotocin-induced diabetes; 10 mg/kg, 0 weeks).
`CN(C)c1ccc(-c2oc3ccccc3c(=O)c2OCc2ccccc2)cc1`: “serum alanine aminotransferase” 31.1 ± 2.35 IU (diabetic rat; 7.5 mg/kg, p-nitrophenyl β-glucoside induced).
Under “serum GH level”, `CCCC[C@H](NC(=O)[C@@H](NC(=O)[C@H](CC(=O)O)NC(=O)[C@H](CCC(N)=O)NC(=O)[C@H](CC(C)C)NC(=O)[C@H](CC(C)C)NC(=O)[C@H](CCCN)NC(=O)[C@H](CCCNC(=N)N)NC(=O)[C@H](C)NC(=O)[C@H](CO)NC(=O)[C@H](CC(C)C)NC(=O)[C@H](CCC(N)=O)NC(=O)[C@H](CC)NC(=O)[C@H](CC(C)C)NC(=O)[C@@H](NC(=O)[C@H](CCCN)NC(=O)[C@H](CCCNC(=N)N)NC(=O)[C@H](Cc1ccc(O)cc1)NC(=O)[C@H](CO)NC(=O)[C@H](CC(N)=O)NC(=O)[C@@H](NC(=O)[C@H](Cc1c(F)c(F)c(F)c(F)c1F)NC(=O)[C@@H](NC(=O)[C@H](C)NC(=O)[C@H](CC(=O)O)NC(=O)[C@@H](C)NC(=O)CCc1ccc(O)cc1)[C@@H](C)CC)[C@@H](C)O)C(C)C)[C@@H](C)CC)C(=O)N[C@@H](CO)C(=O)N[C@@H](CCCNC(=N)N)C(=O)NCCCC(N)=O` is recorded as 267 ± 21 ng/mL (GH release, ELISA; male Sprague-Dawley rat, anaesthetised, serum; subcutaneous, 3 µg/kg, 15 min).

A few entries again:
For `COc1ccc2c(c1)c(CC(=O)OCC(=O)OC(C)(C)C)c(C)n2C(=O)c1ccc(Cl)cc1`, the writhing count was 12.5 ± 1.67 (BALB/c mice, acetic acid writhing; intraperitoneal, 20 mg/kg, 20 min count).
`CCOP(=O)(CC(=O)Nc1ccc(S(=O)(=O)N(CC(N)=O)c2ccc(N(CC(N)=O)S(=O)(=O)c3ccc(OC)cc3)c3ccccc23)cc1)OCC`: “nuclear Nrf2 protein level” “increased” (Western blot; APP/PS1 mice, hippocampus and frontal cortex; 40 mg/kg).
